Measured values from different studies.
Parts stem from different laboratories: compare values within a part only. ± gives the spread as reported.
Chain of UniProt P51532 (whole entry, unmodified, looked up): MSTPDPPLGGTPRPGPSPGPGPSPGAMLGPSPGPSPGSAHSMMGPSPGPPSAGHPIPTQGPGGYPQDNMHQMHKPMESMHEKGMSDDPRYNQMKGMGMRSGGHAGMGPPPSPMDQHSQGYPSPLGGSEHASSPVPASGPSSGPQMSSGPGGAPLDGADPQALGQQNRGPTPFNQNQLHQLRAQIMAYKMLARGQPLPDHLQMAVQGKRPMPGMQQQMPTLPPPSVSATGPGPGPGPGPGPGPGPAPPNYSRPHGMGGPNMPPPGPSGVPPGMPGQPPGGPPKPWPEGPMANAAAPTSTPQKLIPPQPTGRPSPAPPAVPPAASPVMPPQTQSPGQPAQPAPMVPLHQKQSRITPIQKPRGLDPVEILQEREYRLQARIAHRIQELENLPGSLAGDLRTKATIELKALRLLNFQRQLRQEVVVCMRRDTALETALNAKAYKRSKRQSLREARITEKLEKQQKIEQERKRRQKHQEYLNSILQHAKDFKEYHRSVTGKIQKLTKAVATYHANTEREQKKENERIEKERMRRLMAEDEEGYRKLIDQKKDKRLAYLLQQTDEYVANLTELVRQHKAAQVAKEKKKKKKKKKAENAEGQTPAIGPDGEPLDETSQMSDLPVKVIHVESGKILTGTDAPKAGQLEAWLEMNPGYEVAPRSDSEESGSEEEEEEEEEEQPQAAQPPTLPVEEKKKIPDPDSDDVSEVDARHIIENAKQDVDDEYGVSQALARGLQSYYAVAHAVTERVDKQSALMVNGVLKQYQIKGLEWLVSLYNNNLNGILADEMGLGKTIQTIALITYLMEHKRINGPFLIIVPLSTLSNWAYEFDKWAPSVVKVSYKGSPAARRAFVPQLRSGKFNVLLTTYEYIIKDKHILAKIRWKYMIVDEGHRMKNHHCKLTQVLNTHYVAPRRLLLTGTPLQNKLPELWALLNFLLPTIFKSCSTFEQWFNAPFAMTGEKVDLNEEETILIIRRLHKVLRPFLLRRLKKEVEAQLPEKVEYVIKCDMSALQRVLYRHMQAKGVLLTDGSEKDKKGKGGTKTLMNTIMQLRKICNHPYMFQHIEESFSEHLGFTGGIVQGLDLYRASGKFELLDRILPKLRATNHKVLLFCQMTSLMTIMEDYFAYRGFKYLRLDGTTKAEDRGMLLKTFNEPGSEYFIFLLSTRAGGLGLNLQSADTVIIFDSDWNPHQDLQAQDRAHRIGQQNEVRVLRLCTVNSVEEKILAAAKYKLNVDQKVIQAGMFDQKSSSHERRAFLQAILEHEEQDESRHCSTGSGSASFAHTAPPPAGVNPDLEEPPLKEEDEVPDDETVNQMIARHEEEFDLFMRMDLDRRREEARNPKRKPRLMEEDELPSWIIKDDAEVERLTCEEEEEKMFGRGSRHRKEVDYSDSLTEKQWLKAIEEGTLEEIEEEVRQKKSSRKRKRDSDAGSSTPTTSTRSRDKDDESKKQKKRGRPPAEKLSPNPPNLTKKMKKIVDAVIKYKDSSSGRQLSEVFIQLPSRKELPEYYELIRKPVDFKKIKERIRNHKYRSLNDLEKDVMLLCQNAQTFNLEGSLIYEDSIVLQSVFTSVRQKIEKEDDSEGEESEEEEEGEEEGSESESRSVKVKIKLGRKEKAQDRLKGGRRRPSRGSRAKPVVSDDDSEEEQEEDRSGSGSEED
Chain of UniProt O42275 (whole entry, looked up): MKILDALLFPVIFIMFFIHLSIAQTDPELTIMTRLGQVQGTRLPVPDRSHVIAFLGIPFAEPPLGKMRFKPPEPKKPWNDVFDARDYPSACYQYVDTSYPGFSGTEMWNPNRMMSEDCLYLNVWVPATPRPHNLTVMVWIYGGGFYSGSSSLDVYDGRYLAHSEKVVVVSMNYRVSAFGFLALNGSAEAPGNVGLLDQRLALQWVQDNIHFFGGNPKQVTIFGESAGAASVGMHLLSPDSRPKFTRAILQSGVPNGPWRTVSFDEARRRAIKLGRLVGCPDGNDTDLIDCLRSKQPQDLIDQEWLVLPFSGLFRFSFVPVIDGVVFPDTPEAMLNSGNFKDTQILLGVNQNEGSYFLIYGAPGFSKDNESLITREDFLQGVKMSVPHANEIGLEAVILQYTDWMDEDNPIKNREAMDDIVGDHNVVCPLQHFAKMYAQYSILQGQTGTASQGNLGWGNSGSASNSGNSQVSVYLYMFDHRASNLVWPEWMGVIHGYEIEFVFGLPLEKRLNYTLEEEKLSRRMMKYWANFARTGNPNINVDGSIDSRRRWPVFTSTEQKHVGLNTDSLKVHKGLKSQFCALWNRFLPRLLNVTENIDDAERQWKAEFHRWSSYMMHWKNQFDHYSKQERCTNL
Chain of UniProt P34913 (whole entry, looked up): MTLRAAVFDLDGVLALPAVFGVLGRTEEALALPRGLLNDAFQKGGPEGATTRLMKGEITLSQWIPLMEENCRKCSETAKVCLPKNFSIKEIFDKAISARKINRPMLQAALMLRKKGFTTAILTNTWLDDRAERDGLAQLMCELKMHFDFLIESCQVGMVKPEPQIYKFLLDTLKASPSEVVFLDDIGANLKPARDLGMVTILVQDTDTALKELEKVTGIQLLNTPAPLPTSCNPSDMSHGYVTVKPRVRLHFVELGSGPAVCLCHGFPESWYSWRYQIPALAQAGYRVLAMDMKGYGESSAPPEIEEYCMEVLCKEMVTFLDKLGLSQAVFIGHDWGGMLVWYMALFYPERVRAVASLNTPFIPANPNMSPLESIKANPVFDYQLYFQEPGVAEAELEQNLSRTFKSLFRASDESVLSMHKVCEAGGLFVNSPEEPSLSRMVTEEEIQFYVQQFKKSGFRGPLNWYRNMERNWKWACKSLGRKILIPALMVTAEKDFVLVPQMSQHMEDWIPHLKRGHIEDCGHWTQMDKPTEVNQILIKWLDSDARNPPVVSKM

Block 1
SMILES: Cc1cc(OCc2nnc(SC3CCCC3)n2-c2cccnc2)ccc1-c1ccc(S(C)(=O)=O)cc1
MCF7 — GI50: 0.28 µM.
It gave 1.54 µM for GI50 (CCRF-CEM).
For HOP-62: GI50 read 2.38 µM.
The GI50 was 0.13 µM (EKVX).
The GI50 was 2.27 µM (NCI-H322M).
It gave 1.57 µM for GI50 (NCI-H522).
For RPMI-8226: GI50 read 0.134 µM.
It gave 0.832 µM for GI50 (OVCAR-8).

Further values, each from its own experiment
`Cc1ccc(S(=O)(=O)Nc2c(N3CCC(NC(=O)Nc4ccc(C(F)(F)F)c(F)c4)CC3)c(=O)c2=O)cc1` gave an IC50 of 0.0178 ± 0.0011 µM (EPHX2 (Homo sapiens, UniProt P34913)).
`CN1CCc2nc(C(=O)N[C@@H]3C[C@@H](C(=O)N(C)C)CC[C@@H]3NC(=O)C(=O)Nc3ccc(Cl)cn3)sc2C1`: “increase in median Tmax” roughly 30 min (human; added: ketoconazole; baseline: compound alone).
For `Cc1ccc(CN2CCC(C(=O)Nc3ccc(-c4cnc5ccccc5c4)cc3)CC2)cc1`, the IC50 was 5.09 µM (ache (Electrophorus electricus, UniProt O42275)).
The viability of `C#Cc1cccc(Nc2ncnc3cc(OCCOC)c(OCCOC)cc23)c1` is reported as 75.2% (HepG2; MTT; 0.2 µg/mL, maintenance medium, 2% serum).
`Oc1ccc(-c2nc(-c3ccncc3)c(-c3ccc(F)cc3)[nH]2)cc1` gave a ΔTm of 0.04 ± 0.3 °C (SMARCA4 (Homo sapiens, UniProt P51532); 10 µM).
For `N#Cc1ccc(-c2csc(CNC(=O)C34CC(CN(C(=O)COCCF)C3)C4)n2)cc1`, the CLint was 1.6 µL/min/10⁶ cells (human, both sexes, cryopreserved hepatocytes; 0.5 µM).
`CC[C@@H]1C(=O)N(C)c2cnc(Nc3ccc(C(=O)NC4CCN(C)CC4)cc3OC)nc2N1C1CCCC1` has a ΔTm of 6.97 ± 0.03 °C (Bromodomain-containing protein 4, BD1 (BRD4, Homo sapiens, UniProt O60885); thermal stabilisation, thermal shift; 10 µM).
`Cc1cncc(C)n1` gave an EC50 of 545 ± 35.8 µM (uncharacterized protein (Bos taurus, UniProt E1BM68); agonist).
